Measured values pooled from the literature.
Compare with care: the assays were run in different laboratories.
Sequence of UniProt P49116 (whole entry, looked up): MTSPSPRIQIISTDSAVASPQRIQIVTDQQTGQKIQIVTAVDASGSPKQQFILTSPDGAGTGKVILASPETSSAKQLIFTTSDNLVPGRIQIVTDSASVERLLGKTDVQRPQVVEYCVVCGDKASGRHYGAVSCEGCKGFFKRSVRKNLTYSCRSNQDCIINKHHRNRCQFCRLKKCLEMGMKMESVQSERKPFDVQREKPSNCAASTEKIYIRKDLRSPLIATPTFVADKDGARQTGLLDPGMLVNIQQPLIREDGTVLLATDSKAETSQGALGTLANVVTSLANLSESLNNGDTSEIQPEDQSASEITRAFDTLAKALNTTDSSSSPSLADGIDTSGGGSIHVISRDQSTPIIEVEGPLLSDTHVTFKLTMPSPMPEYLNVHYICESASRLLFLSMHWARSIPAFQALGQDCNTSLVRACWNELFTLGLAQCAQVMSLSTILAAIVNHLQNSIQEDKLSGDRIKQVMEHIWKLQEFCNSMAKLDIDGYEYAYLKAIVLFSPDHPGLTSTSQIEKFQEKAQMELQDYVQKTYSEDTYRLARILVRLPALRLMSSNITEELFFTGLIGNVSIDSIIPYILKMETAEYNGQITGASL

Under “adverse event Stomatitis”, `Cc1cc(Nc2ccc(S(F)(F)(F)(F)F)cc2)n2nc(C(C)(F)F)nc2n1` is recorded as 0% (Plasmodium vivax malaria patients; oral, 800 mg).
`CC(C)(C)OC(=O)Nc1ccc(-c2cc(C(=O)NCCCCCCC(=O)NO)no2)cc1` gave a viability of 97.5% (OCI-Ly1; 0.1 µM, 120 h).
`NCCONC(=O)[C@@H]1CC[C@@H]2CN1C(=O)N2OS(=O)(=O)O`: “adverse event incidence” 0% (item: infusion-related reaction; healthy Chinese men; intravenous, 1 g, treatment-emergent).
`FC(F)(F)c1ccc(CNc2ccc(Cc3c[nH]c4ncc(Cl)cc34)cn2)cn1` — result for “adverse event incidence”: 2% (item: alanine aminotransferase increased; patients with advanced solid tumours; oral, dose not given, grade 3 and 4, possibly related to drug).
`CC[C@H](C)[C@H](NC(=O)[C@H](Cc1ccccc1)NC(=O)[C@H](CCC(=O)O)NC(=O)[C@H](CCCCNC(=O)COCCOCCNC(=O)COCCOCCNC(=O)CC[C@H](NC(=O)CCCCCCCCCCCCCCCCC(=O)O)C(=O)O)NC(=O)[C@H](C)NC(=O)[C@H](C)NC(=O)[C@H](CCC(N)=O)NC(=O)CNC(=O)[C@H](CCC(=O)O)NC(=O)[C@H](CC(C)C)NC(=O)[C@H](Cc1ccc(O)cc1)NC(=O)[C@H](CO)NC(=O)[C@H](CO)NC(=O)[C@@H](NC(=O)[C@H](CC(=O)O)NC(=O)[C@H](CO)NC(=O)[C@@H](NC(=O)[C@H](Cc1ccccc1)NC(=O)[C@@H](NC(=O)CNC(=O)[C@H](CCC(=O)O)NC(=O)C(C)(C)NC(=O)[C@@H](N)Cc1cnc[nH]1)[C@@H](C)O)[C@@H](C)O)C(C)C)C(=O)N[C@@H](C)C(=O)N[C@@H](Cc1c[nH]c2ccccc12)C(=O)N[C@@H](CC(C)C)C(=O)N[C@H](C(=O)N[C@@H](CCCNC(=N)N)C(=O)NCC(=O)N[C@@H](CCCNC(=N)N)C(=O)NCC(=O)O)C(C)C` — result for “adverse event incidence”: 93.3% (item: Mild adverse events; type 2 diabetes patients; dose not given; relative to: subjects).
For `CC(C)[C@H](C(=O)Nc1ccc(C(=O)NO)cc1)c1ccccc1`, the viability was 71.1% (OCI-Ly1; 0.1 µM, 120 h).
`Cc1c(C(=O)O)ccc2c3n(nc12)[C@@H]1[C@H](C3)N(CC2CC2)[C@@]2(C(=O)Nc3cc(Cl)ccc32)[C@H]1c1cccc(Cl)c1F` — result for “adverse event incidence”: 0% (phase Ia trial, item: Dizziness; cancer patients; oral, dose not given, all patients grade ≥3).
`Cc1c(Cl)c(C)[n+]([O-])c(Cl)c1-c1noc(-c2cc(O)c(O)c([N+](=O)[O-])c2)n1`: “adverse event incidence” 13.3% (item: Mild severity; healthy Chinese subjects; oral, 25 mg).
`CC(=O)O[C@H]1C(=O)[C@@]2(C)[C@H]([C@H](OC(=O)c3ccccc3)[C@]3(O)C[C@H](OC(=O)[C@H](O)[C@@H](NC(=O)c4ccccc4)c4ccccc4)C(C)=C1C3(C)C)[C@]1(OC(C)=O)CO[C@@H]1C[C@@H]2O`: “adverse events, all grades” 11% (item: peripheral oedema; patients with advanced solid tumours; intravenous, dose not given, phase Ib, related to compound).
For `O=C1CCc2ccc(OCCCCN3CCN(c4cccc(Cl)c4Cl)CC3)cc2N1`, “adverse event incidence” read 20% (item: Sedation; genotyped patients, CYP2D6 ultrarapid metabolizers; dose not given, long-acting oral or depot).
For `CC[C@H](C)CCCCC(=O)N[C@@H](CCN)C(=O)N[C@H](C(=O)N[C@@H](CCN)C(=O)N[C@H]1CCNC(=O)[C@H]([C@@H](C)O)NC(=O)[C@H](CCN)NC(=O)[C@H](CCN)NC(=O)[C@H](CC(C)C)NC(=O)[C@@H](Cc2ccccc2)NC(=O)[C@H](CCN)NC1=O)[C@@H](C)O`, “adverse event incidence” read 50% (item: oral hypoaesthesia; normal renal function subjects; IV, 0.75 mg/kg).
`CNC(=O)c1ccc(-c2cnc3ncc(Cc4ccc5ncccc5c4)n3n2)cc1F` — result for “adverse event incidence”: 0% (phase 1 clinical trial, item: blood alkaline phosphatase increased; gastric cancer expansion cohort; oral, 600 mg twice daily, grade 3 or 4).
`[H]/N=C(/N)NS(=O)(=O)c1ccc(N)cc1` gave a Kd of 1.71 nM (Nuclear receptor subfamily 2 group C member 2, ligand-binding domain (Homo sapiens, UniProt P49116); SPR imaging).

Excerpt of the above:
`CC(C)(C)OC(=O)Nc1ccc(-c2cc(C(=O)NCCCCCCC(=O)NO)no2)cc1` gave a viability of 97.5% (OCI-Ly1; 0.1 µM, 120 h).
`FC(F)(F)c1ccc(CNc2ccc(Cc3c[nH]c4ncc(Cl)cc34)cn2)cn1` — result for “adverse event incidence”: 2% (item: alanine aminotransferase increased; patients with advanced solid tumours; oral, dose not given, grade 3 and 4, possibly related to drug).
